Measurements from different studies.
Each line is one published result; not all experiments were run side by side. “And” joins repeats or separate records; there may be more than shown. ± marks the error that the study gave.
ARID1B: AT-rich interactive domain-containing protein 1B (ARID1B, Homo sapiens, UniProt Q8NFD5)
UniProt Q8NFD5, sequence (whole entry, looked up): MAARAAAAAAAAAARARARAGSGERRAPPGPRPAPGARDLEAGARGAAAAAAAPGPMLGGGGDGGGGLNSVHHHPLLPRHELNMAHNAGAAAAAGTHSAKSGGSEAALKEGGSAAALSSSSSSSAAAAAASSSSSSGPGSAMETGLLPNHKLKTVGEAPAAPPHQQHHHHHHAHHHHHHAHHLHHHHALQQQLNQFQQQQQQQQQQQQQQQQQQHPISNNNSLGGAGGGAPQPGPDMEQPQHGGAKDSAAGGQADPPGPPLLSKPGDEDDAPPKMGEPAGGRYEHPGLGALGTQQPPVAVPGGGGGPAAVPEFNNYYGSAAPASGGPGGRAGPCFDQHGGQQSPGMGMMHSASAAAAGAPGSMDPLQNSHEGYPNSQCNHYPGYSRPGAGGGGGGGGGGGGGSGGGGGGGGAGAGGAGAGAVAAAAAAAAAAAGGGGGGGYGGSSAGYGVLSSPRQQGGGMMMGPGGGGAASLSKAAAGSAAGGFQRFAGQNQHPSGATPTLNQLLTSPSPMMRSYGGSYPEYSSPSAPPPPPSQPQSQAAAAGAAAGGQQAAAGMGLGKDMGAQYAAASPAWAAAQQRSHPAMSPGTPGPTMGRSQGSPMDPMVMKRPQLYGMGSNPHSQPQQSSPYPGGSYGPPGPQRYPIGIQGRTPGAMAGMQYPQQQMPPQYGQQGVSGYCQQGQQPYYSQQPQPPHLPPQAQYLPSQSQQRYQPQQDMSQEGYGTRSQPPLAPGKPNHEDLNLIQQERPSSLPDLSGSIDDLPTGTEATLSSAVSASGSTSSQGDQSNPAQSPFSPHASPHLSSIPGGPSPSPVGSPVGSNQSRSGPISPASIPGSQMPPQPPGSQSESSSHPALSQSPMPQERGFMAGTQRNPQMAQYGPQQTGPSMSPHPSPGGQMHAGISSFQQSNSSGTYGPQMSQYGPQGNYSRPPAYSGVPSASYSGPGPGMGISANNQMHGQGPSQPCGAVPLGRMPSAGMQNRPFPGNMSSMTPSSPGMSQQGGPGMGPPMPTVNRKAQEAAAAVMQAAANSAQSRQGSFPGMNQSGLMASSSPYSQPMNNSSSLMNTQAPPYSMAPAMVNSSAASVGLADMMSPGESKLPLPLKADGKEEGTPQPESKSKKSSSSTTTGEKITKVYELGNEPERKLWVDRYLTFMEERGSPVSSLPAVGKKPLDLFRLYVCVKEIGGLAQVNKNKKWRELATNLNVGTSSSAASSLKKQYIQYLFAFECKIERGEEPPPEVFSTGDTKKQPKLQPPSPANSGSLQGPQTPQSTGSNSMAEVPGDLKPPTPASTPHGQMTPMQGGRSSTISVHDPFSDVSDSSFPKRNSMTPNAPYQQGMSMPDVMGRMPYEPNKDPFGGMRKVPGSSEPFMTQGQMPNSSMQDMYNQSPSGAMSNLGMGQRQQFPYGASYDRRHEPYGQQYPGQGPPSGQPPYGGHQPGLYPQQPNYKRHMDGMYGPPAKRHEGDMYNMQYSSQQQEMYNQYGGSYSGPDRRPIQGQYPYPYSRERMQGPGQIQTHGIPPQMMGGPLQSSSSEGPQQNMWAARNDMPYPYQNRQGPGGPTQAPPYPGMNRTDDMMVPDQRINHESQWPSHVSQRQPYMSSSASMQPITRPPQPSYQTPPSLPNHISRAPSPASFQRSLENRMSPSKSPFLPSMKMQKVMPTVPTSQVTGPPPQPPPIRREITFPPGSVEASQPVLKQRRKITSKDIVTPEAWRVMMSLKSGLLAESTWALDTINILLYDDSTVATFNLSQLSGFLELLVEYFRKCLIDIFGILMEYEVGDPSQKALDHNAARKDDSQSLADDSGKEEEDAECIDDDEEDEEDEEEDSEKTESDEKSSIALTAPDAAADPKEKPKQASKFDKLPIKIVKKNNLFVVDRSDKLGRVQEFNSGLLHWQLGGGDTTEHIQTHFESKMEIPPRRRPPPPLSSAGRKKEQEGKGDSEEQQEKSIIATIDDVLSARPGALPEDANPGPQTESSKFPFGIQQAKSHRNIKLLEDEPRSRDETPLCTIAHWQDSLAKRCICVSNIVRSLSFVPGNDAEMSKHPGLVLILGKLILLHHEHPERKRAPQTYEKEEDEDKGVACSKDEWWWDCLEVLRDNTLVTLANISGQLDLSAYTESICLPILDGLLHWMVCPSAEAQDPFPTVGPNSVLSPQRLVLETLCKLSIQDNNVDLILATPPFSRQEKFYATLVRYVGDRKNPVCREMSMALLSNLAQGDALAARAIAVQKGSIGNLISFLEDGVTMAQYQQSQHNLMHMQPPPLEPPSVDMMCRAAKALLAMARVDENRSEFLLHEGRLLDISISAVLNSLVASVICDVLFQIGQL
gyrB with GyrA: DNA gyrase subunit B, with GyrA (gyrB, Mycobacterium tuberculosis, UniProt P9WG45)
UniProt P21554, sequence (whole entry, unmodified, looked up): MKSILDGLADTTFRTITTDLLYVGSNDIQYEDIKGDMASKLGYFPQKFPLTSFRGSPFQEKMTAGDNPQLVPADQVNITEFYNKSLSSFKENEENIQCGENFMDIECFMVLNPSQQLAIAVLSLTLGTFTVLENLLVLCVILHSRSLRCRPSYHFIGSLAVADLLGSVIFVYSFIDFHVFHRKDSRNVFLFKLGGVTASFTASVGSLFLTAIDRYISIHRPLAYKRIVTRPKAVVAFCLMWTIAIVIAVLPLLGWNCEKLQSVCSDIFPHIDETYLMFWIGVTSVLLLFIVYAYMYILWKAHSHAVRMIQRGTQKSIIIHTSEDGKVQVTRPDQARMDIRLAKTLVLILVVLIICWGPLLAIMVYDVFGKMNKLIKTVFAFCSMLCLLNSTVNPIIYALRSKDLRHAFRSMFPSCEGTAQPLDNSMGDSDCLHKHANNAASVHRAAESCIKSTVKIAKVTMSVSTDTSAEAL
UniProt P9WG45, sequence (whole entry, looked up): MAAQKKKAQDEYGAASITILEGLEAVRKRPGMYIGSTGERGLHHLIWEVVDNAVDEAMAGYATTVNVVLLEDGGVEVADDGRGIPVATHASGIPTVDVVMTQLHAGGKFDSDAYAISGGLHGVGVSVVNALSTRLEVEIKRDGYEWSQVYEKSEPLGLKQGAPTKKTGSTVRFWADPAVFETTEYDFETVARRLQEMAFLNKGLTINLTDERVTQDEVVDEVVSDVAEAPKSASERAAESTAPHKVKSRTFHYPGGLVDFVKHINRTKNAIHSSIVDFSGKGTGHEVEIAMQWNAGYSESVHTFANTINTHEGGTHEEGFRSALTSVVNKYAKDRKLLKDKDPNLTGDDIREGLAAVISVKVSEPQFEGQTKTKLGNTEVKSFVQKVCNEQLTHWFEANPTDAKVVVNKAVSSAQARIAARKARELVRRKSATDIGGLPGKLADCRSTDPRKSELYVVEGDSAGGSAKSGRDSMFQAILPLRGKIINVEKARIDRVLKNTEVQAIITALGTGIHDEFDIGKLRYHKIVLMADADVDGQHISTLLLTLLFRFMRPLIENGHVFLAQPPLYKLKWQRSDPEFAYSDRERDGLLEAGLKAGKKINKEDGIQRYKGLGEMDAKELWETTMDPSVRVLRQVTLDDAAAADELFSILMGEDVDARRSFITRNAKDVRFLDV
UniProt P31944, sequence (whole entry, looked up): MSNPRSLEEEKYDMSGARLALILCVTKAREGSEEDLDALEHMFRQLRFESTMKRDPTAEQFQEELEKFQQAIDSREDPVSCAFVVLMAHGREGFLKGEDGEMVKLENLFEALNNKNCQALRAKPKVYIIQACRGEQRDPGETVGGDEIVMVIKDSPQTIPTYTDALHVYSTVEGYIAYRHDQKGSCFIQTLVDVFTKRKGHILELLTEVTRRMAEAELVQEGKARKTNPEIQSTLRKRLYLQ
UniProt P23458, sequence (whole entry, looked up): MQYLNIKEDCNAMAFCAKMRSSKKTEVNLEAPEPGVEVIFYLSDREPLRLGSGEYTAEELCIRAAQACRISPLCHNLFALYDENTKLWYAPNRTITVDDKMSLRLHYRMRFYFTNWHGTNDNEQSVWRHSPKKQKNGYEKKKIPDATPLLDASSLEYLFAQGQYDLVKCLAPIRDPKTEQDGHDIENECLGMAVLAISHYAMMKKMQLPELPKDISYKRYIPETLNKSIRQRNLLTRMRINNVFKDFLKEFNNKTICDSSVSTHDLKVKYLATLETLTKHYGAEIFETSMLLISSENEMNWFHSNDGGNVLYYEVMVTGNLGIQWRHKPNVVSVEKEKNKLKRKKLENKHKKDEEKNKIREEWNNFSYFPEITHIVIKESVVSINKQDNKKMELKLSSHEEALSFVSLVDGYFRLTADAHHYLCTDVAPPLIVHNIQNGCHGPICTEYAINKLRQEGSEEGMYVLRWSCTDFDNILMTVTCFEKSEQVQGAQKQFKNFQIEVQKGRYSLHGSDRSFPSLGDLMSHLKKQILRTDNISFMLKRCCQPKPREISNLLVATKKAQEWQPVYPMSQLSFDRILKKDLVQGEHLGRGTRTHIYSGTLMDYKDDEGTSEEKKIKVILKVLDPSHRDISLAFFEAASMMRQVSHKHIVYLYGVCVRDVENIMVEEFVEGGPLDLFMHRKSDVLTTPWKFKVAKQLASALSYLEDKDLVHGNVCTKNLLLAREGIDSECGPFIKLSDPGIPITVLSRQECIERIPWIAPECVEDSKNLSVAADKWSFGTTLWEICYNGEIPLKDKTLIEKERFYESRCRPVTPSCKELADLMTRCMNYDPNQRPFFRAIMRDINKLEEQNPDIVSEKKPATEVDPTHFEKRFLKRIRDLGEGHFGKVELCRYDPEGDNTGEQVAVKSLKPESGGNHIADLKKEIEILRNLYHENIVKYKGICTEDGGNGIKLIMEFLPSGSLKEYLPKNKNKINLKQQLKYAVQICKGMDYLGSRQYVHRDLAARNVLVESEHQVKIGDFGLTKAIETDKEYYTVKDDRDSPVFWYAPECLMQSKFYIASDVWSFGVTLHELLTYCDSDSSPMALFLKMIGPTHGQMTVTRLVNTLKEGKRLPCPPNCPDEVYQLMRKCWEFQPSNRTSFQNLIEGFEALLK

Compound = CC(C)C[C@@H]1NC(=O)CN(C)C(=O)[C@H](Cc2c[nH]c3ccccc23)NC(=O)[C@H](CCC(=O)O)NC(=O)[C@H](Cc2ccccc2)N(C)C(=O)[C@H](Cc2ccccc2)NC(=O)CSC[C@@H](C(N)=O)NC(=O)[C@H](CCCCN)NC(=O)[C@H](C(C)C)NC(=O)[C@H](Cc2ccc(O)cc2)NC(=O)[C@H](Cc2ccc(O)cc2)NC(=O)[C@H](C(C)C)NC(=O)[C@H](Cc2ccccc2)N(C)C(=O)[C@H](C)NC1=O; tested on = ARID1B; test = binding, TR-FRET competition; setting = 1% DMSO; measurement = IC50; result = > 1 µM
Compound = Cc1ccc(O[C@H]2CCN(C)C2)cc1C(=O)N[C@H](C)c1cc(-c2cnn(C)c2)nc2ccccc12; tested on = Vero E6; setting = 125 µM; measurement = viability; result = 2.45% and 5.05% and 3.82%
Compound = COc1ccccc1C(C[N+](=O)[O-])c1c(-c2ccccc2)[nH]c2ccccc12 (stereo not drawn); tested on = Cannabinoid receptor 1 (CNR1, Homo sapiens, UniProt P21554, N393A); test = G protein activation, agonist; measurement = EC50; result = 0.31 ± 0.08 µM
Compound = CCCCCn1cc(C(=O)c2cccc3ccccc23)c2ccccc21; tested on = Cannabinoid receptor 1 (CNR1, Homo sapiens, UniProt P21554, F174A); test = G protein activation, agonist, BRET; measurement = EC50; result = 0.17 µM
Compound = O=C(CCc1c(C(=O)Nc2ccc(F)cc2)[nH]c2ccc(Cl)cc12)Nc1ccc(F)cc1; tested on = gyrB with GyrA; measurement = IC50; result = 8.4 µM
Compound = CC(C)C[C@@H]1NC(=O)CN(C)C(=O)[C@H](Cc2c[nH]c3ccccc23)NC(=O)[C@H](CCC(=O)O)NC(=O)[C@H](Cc2ccccc2)N(C)C(=O)[C@H](Cc2ccccc2)NC(=O)CSC[C@@H](C(N)=O)NC(=O)[C@H](CCCCN)NC(=O)[C@H](C(C)C)NC(=O)[C@H](Cc2ccc(O)cc2)NC(=O)[C@H](C)NC(=O)[C@H](C(C)C)NC(=O)[C@H](Cc2ccccc2)N(C)C(=O)[C@H](CCCNC(=N)N)NC1=O; tested on = ARID1B; test = binding, TR-FRET competition; setting = 1% DMSO; measurement = IC50; result = 0.04 µM
Compound = CN(C)CC1CN(S(=O)(F)=Nc2cc(Cl)c(C(=O)N3CCO[C@@H](c4ccccc4)C3)c(Cl)c2)C1 (stereo partly drawn); tested on = Hemagglutinin (HA, Influenza A virus, UniProt P03452); test system = A/Puerto Rico/8/1934; measurement = Kd; result = 0.041 µM
Compound = CC[C@H](C)[C@H](NC(=O)[C@H](CO)NC(=O)[C@H](CC(N)=O)NC(=O)[C@H](CC(C)C)NC(=O)[C@H](Cc1ccc(O)cc1)NC(=O)[C@H](CCCCN)NC(=O)[C@H](CCCCN)NC(=O)[C@@H](NC(=O)[C@H](C)NC(=O)[C@H](CCSC)NC(=O)[C@H](CCC(N)=O)NC(=O)[C@H](CCCCN)NC(=O)[C@H](CCCN=C(N)N)NC(=O)[C@H](CC(C)C)NC(=O)[C@H](CCCN=C(N)N)NC(=O)[C@@H](NC(=O)[C@H](Cc1ccc(O)cc1)NC(=O)[C@H](CC(N)=O)NC(=O)[C@H](CC(=O)O)NC(=O)[C@@H](NC(=O)[C@H](Cc1ccccc1)NC(=O)[C@@H](NC(=O)[C@H](C)NC(=O)[C@H](CC(=O)O)NC(=O)[C@H](CO)NC(=O)[C@@H](N)Cc1c[nH]cn1)C(C)C)[C@@H](C)O)[C@@H](C)O)C(C)C)C(=O)N[C@@H](CC(C)C)C(=O)N[C@@H](CC(N)=O)C(N)=O; tested on = Pituitary adenylate cyclase-activating polypeptide type I receptor (ADCYAP1R1, Homo sapiens, UniProt P41586); test = calcium signal, agonist, fluorescence; measurement = EC50; result = 0.0776 µM
Compound = CCCCCn1cc(C(=O)c2ccc3ccccc3c2)c2ccccc21; tested on = Cannabinoid receptor 1 (CNR1, Homo sapiens, UniProt P21554, H178A); test = G protein activation, agonist, BRET; measurement = EC50; result = 1.05 µM
Compound = CC1(C)CC(NC(=O)c2[nH]c3ccc(Cl)cc3c2CCC(=O)Nc2ccc(Cl)cc2)CC(C)(C)N1[O]; tested on = gyrB with GyrA; measurement = IC50; result = 3.2 µM
Compound = CC(=O)N(Cc1ccccc1)[C@@H](C)C(=O)N(C)[C@@H](C)C(=O)N(CCc1ccc(Cl)cc1)[C@@H](C)C(=O)N(C)[C@@H](C)C(=O)N(CCC(C)C)[C@@H](C)C(N)=O; tested on = E3 ubiquitin-protein ligase Mdm2 (MDM2, Homo sapiens, UniProt Q00987); test = ligand displacement, FP; measurement = Ki; result = 1.9 µM
Compound = CCN(CC)C(=O)c1ccc(C(c2cccc(O)c2)N2CC(C)N(Cc3ccccc3)CC2C)cc1 (stereo not drawn); tested on = Delta-type opioid receptor (OPRD1, Homo sapiens, UniProt P41143, L300A); measurement = Ki; result = 0.00058 ± 0.00034 µM
Compound = CN(C)[C@H]1C[C@@]23CC[C@@]4(O2)C(=CC[C@]2(C)[C@@H](c5ccc6ccncc6c5)CC[C@H]24)C=C3[C@@H](O)[C@@H]1O; tested on = Tyrosine-protein kinase JAK1, JH1 kinase domain (JAK1, Homo sapiens, UniProt P23458); test = probe labelling, inhibitor, KiNativ ATP probe MS; test system = native lysate; setting = 1 µM; measurement = inhibition; result = 7%
Compound = CCN(CC)C(=O)[C@@H]1C=C2c3cccc4c3c(cn4C(=O)c3ccco3)C[C@H]2N(C)C1; tested on = D(1B) dopamine receptor (DRD5, Homo sapiens, UniProt P21918); test = ligand displacement, radioligand; measurement = Ki; result = > 10 µM
Compound = O=[N+]([O-])CC(c1ccco1)c1c(-c2ccccc2)[nH]c2ccccc12 (stereo not drawn); tested on = Cannabinoid receptor 1 (CNR1, Homo sapiens, UniProt P21554, W241A); test = G protein activation, agonist, BRET; measurement = EC50; result = > 1000 µM
Compound = CCC[C@@H](C(=O)c1ccccc1)N1CCCC1; tested on = Sodium-dependent dopamine transporter (SLC6A3, Homo sapiens, UniProt Q01959); test = dopamine uptake, inhibitor; test system = HEK293 transiently transfected; setting = DAT V152I mutant, added: [3H]dopamine; measurement = Ki; result = 0.048 µM
Compound = CCCCCn1cc(C(=O)c2cccc3c2CC(C)(C)C3)c2ccccc21; tested on = Cannabinoid receptor 1 (CNR1, Homo sapiens, UniProt P21554); test = GαoA activation, agonist, BRET; measurement = EC50; result = 0.0339 µM
Compound = Cc1ccc2c(C(C[N+](=O)[O-])c3cccs3)c(-c3ccccc3)[nH]c2c1 (stereo not drawn); tested on = Cannabinoid receptor 1 (CNR1, Homo sapiens, UniProt P21554, I245M); test = β-arrestin recruitment, agonist; measurement = EC50; result = 0.12 µM
Compound = O=C(CCc1c(C(=O)Nc2ccc(Br)cc2)[nH]c2ccc(Cl)cc12)Nc1ccc(Br)cc1; tested on = gyrB with GyrA; measurement = IC50; result = 6.8 µM
Compound = CC(C)CC(C(=O)N1CC2(CC1C#N)C(=O)Nc1ccccc12)N(C)C(=O)c1cc2c(F)cc(F)c(F)c2[nH]1 (stereo not drawn); tested on = Caspase-14 (Homo sapiens, UniProt P31944); test = enzyme activity, inhibitor; measurement = IC50; result = 9 µM and 9.01 µM
Compound = COc1ccccc1-c1ccncc1C(=O)Nc1nnc(OCc2ccc(Cl)cc2)s1; tested on = DLD-1 parental (BRCA2 WT); setting = 2 µM, average of 3 runs; how to read = reference: untreated; measurement = colony survival; result = 96.9%
Compound = Cc1ccc(OC[C@@H]2CCCN2C)cc1C(=O)N[C@H](C)c1cc(-c2cnn(C)c2)nc2ccccc12; tested on = African green monkey cells; setting = 15.62 µM; measurement = viability; result = 94%
Compound = CC(C)C[C@@H]1NC(=O)CN(C)C(=O)[C@H](Cc2c[nH]c3ccccc23)NC(=O)[C@H](CCC(=O)O)NC(=O)[C@H](Cc2ccccc2)N(C)C(=O)[C@H](Cc2ccccc2)NC(=O)CSC[C@@H](C(N)=O)NC(=O)[C@H](CCCCN)NC(=O)[C@H](C(C)C)NC(=O)[C@H](Cc2ccc(O)cc2)NC(=O)[C@H](Cc2ccc(O)cc2)NC(=O)[C@H](C(C)C)NC(=O)[C@H](C)N(C)C(=O)[C@H](CCCNC(=N)N)NC1=O; tested on = ARID1B; test = binding, TR-FRET competition; setting = 1% DMSO; measurement = IC50; result = > 1 µM
Compound = O=C1NC2(CC2)COc2ncc(F)cc2[C@H]2COCCN2c2ccn3ncc1c3n2; test system = Sprague-Dawley rat, female, ovaries; setting = oral, 5 mg/kg/day, 4 weeks dosing, end of recovery; measurement = organ-to-body weight ratio; result = 0.036 ± 0.006%

For quick reference, copied from above:
Compound = Cc1ccc2c(C(C[N+](=O)[O-])c3cccs3)c(-c3ccccc3)[nH]c2c1 (stereo not drawn); tested on = Cannabinoid receptor 1 (CNR1, Homo sapiens, UniProt P21554, I245M); test = β-arrestin recruitment, agonist; measurement = EC50; result = 0.12 µM
Compound = CCCCCn1cc(C(=O)c2cccc3c2CC(C)(C)C3)c2ccccc21; tested on = Cannabinoid receptor 1 (CNR1, Homo sapiens, UniProt P21554); test = GαoA activation, agonist, BRET; measurement = EC50; result = 0.0339 µM
